# Assay results pooled from the literature.
# A part holds a random share of what one study measured. Positions count from the first letter of the parent shown.

# Block 1 — technique: RNA Bind-n-Seq; molecule type: RNA; medium: in vitro; concentration: 365 nM; reference: no-protein control; reading: higher = stronger binding
# Target: RNA binding protein fox-1 homolog 2, RRM domain, GST-SBP tag (RBFOX2, Homo sapiens, UniProt O43251-10, residues 100-194)
# Setting: natural RNA segment, single round, ends assumed
# Constant ends, left off below: GGGAGUUCUACAGUCCGACGAUC … UGGAAUUCUCGGGUGCCAA
# Construct (chain): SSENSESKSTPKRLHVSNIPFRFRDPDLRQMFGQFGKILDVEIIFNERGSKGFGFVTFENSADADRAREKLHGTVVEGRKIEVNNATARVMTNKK
Oligonucleotide,RBNS enrichment (R)
GCCAGUGGUUCCGGCUGAGCUCUCCUGGCUGGUCCCCCAGGACCACCAGCACUGCCGUGGGUCUCCUCACAUGGUCAAACGGAACACGGGGGGUUAGGCCUGUGUGCCCC,0.196
GAGAAAAGAGAGAUGGGAACCGACGUUGAAAAGGAGGAAACAGAGACCAAGACAGAGCAAGCCAGUGAAGAACAUGAGCAGGAAACAGCUGCUCCUGAGCAUGAAGGAAC,8.37
UCCAAACGGGACACAGCAAGACGAGACCGUUGACAGCCAGGACAGUAAUGCCAUUGCCGCCGUCAAGCAGUCACAGGUCACUGAAGAGGAGGCAGCUGCUGCUCAGACGG,1.18
GGCAGCACUAUCUAGAUAGGUAAGUGGGGGCGGGGAAGGGUGCAUAGCUGUUUUAGCCGAGGGACUCGAUACCGACGUCCCCAGAUAUAGCUAGGCUAAGUCAAGAUCAA,0.564
GCAGCUCAGUGUGUGUCAGUGAUAAGAGUGUGGGAAGGCUUCAUCCUCUGCAGAGGCUGCUGAAGAAGAGUGGGUCAGCUGCAUCCUGGCUGAACCUUUAAUAGGGGACC,1.21
AACUCUCUUAUUCUGCCGCCACAAUGCAAGCAUAGUUUGAUGUUUUCGUUAUUGCCUUUUUUGAGAUGUAUGUAUCUGUAUCUACCUAUAUCUAUAUGUGUGUAUACAUA,0.802
CGGAAGUCGCUCUCCUGGGAGGCAAUGAGCAUUGCCGUAUAGGUUCCUGUUUAUUAGAGAGUAUGCUAAUAAAAGUCCUUGUAAUAGCUCACAGCCACCUAAGUGCGCGG,0.428
UAAAGUCCUCACCCCUGCAUUUGAGAAAUAUUUUAUUAUUUUUAUUUUAAGGCAAAACAGUGUUUACUGUGAUGGGCAGAACAGCCUUUUGUAUCUAGGAGUCCAUUUGA,0.337

# Block 2 — technique: protein binding microarray; molecule type: double-stranded DNA, one strand shown; medium: in vitro; concentration: not given; reference: not given; reading: higher = stronger binding
# Target: Histone acetyltransferase KAT6A, winged helix 1, GST fusion (KAT6A, Homo sapiens, UniProt Q92794, residues 1-85)
# Setting: 8-mer, flanks averaged, mean of 2 arrays, mostly near background
# Construct (chain): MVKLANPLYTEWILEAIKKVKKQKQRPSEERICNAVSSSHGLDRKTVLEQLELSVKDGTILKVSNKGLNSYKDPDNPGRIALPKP
Oligonucleotide,E-score
ATGGTAAA,-0.204
AACGGGTC,0.312
CGCAGGTC,0.147
ATACAACC,0.21
AGGTGAAG,-0.21
CTGCATTA,0.0115
GAAATGGC,0.129
CGGCAGGA,0.257
GATGGTCC,-0.0595
AAACGCCG,0.362
GACCCTAC,-0.0242
ACAGAACT,-0.133
CAACTTTC,-0.132
CAACATGA,0.0365
ATTTATAC,0.0239
GGAATGCC,0.139
CTACCCGA,0.0826
ATGTATGG,0.0406
ATAAAGTA,-0.199
ATGCAACG,-0.0119
GGCTTGGA,-0.133
AGTATGAG,-0.172
AGCGACTC,-0.0643
GGTTCTCA,-0.00265
ACGCAGGG,0.0258

# Block 3 — technique: universal PBM; molecule type: double-stranded DNA, one strand shown; medium: in vitro; concentration: not given; reading: higher = stronger binding
# Target: Sal-like protein 4, full length isoform B (SALL4, Homo sapiens, UniProt Q9UJQ4-2, residues 1-616)
# Setting: 8-mer, flanks averaged, mean of replicates
# Residues (chain): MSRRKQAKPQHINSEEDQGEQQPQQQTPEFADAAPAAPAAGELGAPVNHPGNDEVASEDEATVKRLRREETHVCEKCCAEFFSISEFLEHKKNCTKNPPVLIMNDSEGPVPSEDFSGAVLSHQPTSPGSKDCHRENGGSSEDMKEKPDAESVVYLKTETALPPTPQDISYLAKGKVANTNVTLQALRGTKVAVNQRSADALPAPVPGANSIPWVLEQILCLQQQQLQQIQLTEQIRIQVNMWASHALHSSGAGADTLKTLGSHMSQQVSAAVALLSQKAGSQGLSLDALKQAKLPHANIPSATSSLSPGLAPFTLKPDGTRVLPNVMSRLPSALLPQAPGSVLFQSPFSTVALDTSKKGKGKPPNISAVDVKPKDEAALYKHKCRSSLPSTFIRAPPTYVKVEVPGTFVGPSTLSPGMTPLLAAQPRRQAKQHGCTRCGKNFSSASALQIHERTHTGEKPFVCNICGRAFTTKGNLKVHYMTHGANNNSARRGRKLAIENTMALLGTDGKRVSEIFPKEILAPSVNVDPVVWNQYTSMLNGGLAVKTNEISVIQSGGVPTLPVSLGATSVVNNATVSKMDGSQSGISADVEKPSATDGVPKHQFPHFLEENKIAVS
Oligonucleotide,E-score
CCTTTGCA,-0.0569
AACGAGTT,-0.0144
ATCCACGC,-0.119
ACTAAACG,0.0705
ACTGGTAC,-0.124
AAACGCGG,-0.105
GGCCGGTA,-0.175
CATAAAAA,0.372
GACTGTCC,-0.162
TGAGCACA,0.00975
ATCAGAGG,0.0379
GTGGCCTA,-0.201
GAGTGGAA,0.138
ATTTTCAG,0.269
AGAACCAC,-0.0703
GGGTATAA,0.145
CGTTACAA,0.176
AACGGGGG,-0.164
AAGGTACT,0.0638
CCGGTTTA,-0.102
ATTCCTGA,0.0984
TCGAATCA,0.0108
TCGACAGA,0.101
CACATCGA,0.0237
AGACATAC,0.167

# Block 4 — target: CCND3, cyclin fold, Cln2 fusion (human); technique: yeast growth competition, sequencing; medium: yeast; setting: weak parent motif; reference: not given; reading: higher = stronger binding
# Starting sequence: BRCA2 docking peptide (human); PSIKRNLLNEFDR; partner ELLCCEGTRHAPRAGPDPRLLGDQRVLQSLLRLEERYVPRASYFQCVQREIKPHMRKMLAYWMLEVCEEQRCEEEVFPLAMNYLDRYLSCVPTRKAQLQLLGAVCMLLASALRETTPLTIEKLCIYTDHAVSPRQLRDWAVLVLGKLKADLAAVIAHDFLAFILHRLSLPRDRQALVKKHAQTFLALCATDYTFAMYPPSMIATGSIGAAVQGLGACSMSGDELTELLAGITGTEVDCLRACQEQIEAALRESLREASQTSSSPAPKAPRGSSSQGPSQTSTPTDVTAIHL
Change,normalised enrichment score
I3R,0.113
L8W,0.0527
D12P,0.192
E10Q,-0.0114
S2V,0.0969
L8I,0.167
I3C,0.166
P1A,0.0946
I3M,0.00451
I3G,0.191
N9K,0.242
N9Q,0.159
S2Q,0.21
L7N,-0.0192
S2L,0.203
L8D,0.0453
D12K,0.178
I3N,0.0857
R13W,0.176
N9Y,0.154
R5P,0.119
R13D,0.105
N6H,0.165
D12F,0.173
N9I,0.214

# For quick reference, copied from above (block 4):
Change,normalised enrichment score
D12P,0.192
E10Q,-0.0114
S2V,0.0969
L8I,0.167
I3C,0.166
P1A,0.0946
I3M,0.00451
I3G,0.191
N9K,0.242
N9Q,0.159
S2Q,0.21
L7N,-0.0192
S2L,0.203
